Published values from different studies.
Lines come from different studies, so protocols differ. ± gives the spread as reported.
Cell line: U-87 MG

| SMILES | assay | conditions | scale | quantity | value |
| --- | --- | --- | --- | --- | --- |
| C=C1C[C@](OC)([C@H](OCOC/C=C/B2OC(CC)(CC)C(CC)(CC)O2)C(=O)NC[C@@H]2C[C@@H](OC)C(C)(C)[C@@H](C[C@@H](COC)OC)O2)O[C@H](C)[C@@H]1C | cell viability, sulforhodamine B | 72 h, 37 °C, with: H2O2 100 µM | – | IC50 | 0.026 ± 0.001 µM |
| COc1cc(C#N)c(Oc2ccccc2C)cc1-n1c(=O)cc(S(=O)(=O)c2ccccc2)[nH]c1=O | – | – | – | IC50 | ~24 µM |
| Nc1ccn([C@@H]2O[C@H](CO)[C@@H](O)C2(F)F)c(=O)n1 | cell proliferation, CCK-8 | 4 d | relative to: untreated | ED50 | 0.0011 ± 0.0014 µM |
| CC(=O)O[C@H]1C(=O)[C@@]2(C)[C@H]([C@H](OC(=O)c3ccccc3)[C@]3(O)C[C@H](OC(=O)[C@H](O)[C@@H](NC(=O)c4ccccc4)c4ccccc4)C(C)=C1C3(C)C)[C@]1(OC(C)=O)CO[C@@H]1C[C@@H]2O | cell growth | – | – | IC50 | 1 µg/mL |
| COc1cc(C#N)c(Oc2ccccc2C)cc1-n1c(=O)cc(C(N)=O)[nH]c1=O | – | – | – | IC50 | ~30 µM |
| C#Cc1cccc(Nc2ncnc3cc(OCCOC)c(OCCOC)cc23)c1 | – | 24 h | – | IC50 | 63 ± 5 µM |
| COc1cccc2c1C(=O)c1c(O)c3c(c(O)c1C2=O)C[C@@](O)(C(=O)CO)C[C@@H]3O[C@H]1C[C@H](N)[C@H](O)[C@H](C)O1 | cytotoxicity, WST-1 | 72 h, highest tested concentration | – | Emax | 79.9% |
| NS(=O)(=O)c1ccc(Nc2nc3noc(-c4ccc(Cl)cc4)c3s2)cc1 | MTT | – | – | IC50 | 7.02 µM |
| Cc1ccc(C(=O)Nc2ccc(Oc3cc4cnn(C)c4cc3-c3cn[nH]c3)c(F)c2)c(=O)n1-c1ccc(F)cc1 | cell proliferation, CellTiter-Glo | curve plateau | – | maximal inhibition | 45% |
| CC[C@H](C)[C@H](NC(=O)[C@H](CCC(N)=O)NC(=O)CNC(=O)[C@H](Cc1c[nH]cn1)NC(=O)[C@H](CCCCN)NC(=O)[C@H](Cc1c[nH]cn1)NC(=O)[C@H](Cc1c[nH]cn1)NC(=O)CN)C(=O)N[C@@H](CCSC)C(=O)N1CCC[C@H]1C(=O)N[C@@H](CCSC)C(=O)N[C@@H](CO)C(=O)NCC(=O)NCC(=O)NCC(=O)N[C@@H](CO)C(=O)N[C@@H](CCCCNC(=O)CCCC[C@@H]1SC[C@@H]2NC(=O)N[C@@H]21)C(=O)O | confocal microscopy | 10 µM, 20 min, 37 °C, biotin-labelled peptide | – | binding | binds |
| NS(=O)(=O)c1ccc(Nc2nc3noc(-c4cccc(O)c4)c3s2)cc1 | MTT | – | – | IC50 | 9.51 µM |
